Measured values of several laboratories.
Lines come from different studies, so protocols differ. Numbers after ± are the reported error.

Compound = C#C[C@@]1(O)[C@@H](CO)O[C@@H](n2cc(F)c3c(N)ncnc32)[C@@H]1O; target or system = NCI60 panel; test = cell growth; setting = mean over panel; endpoint = GI50; value = -6.38 log M
Compound = C[n+]1cc2c3c(ccc2c2ccc4cc5c(cc4c21)OCO5)OCO3; target or system = Toxoplasma gondii; test = tachyzoite growth, luciferase; test system = ME49-Fluc, type II; endpoint = EC50; value = 0.1 µM
Compound = Cc1c(C(=O)O)ccc2c3n(nc12)[C@@H]1[C@H](C3)N(CC2CC2)[C@@]2(C(=O)Nc3cc(Cl)ccc32)[C@H]1c1cccc(Cl)c1F; target or system = JAR (MDM2-amplified); test = cell growth, alamarBlue; setting = 120 h; endpoint = GI50; value = 0.019 µM
Compound = O=C(/C=C/C=C/C=C/C1CCCCC1)NC1=C[C@@](O)(/C=C/C=C/C=C/C(=O)NC2=C(O)CCC2=O)[C@@H]2O[C@@H]2C1=O; target or system = SK-LU-1; test = cell growth, CellTiter-Glo; setting = 78 h; endpoint = GI50; value = 15.6 µM
Compound = O=C1c2ccccc2C(=O)c2c(NCCc3ccc(O)cc3)ccc(NCCc3ccc(O)cc3)c21; target or system = Toxoplasma gondii; test = tachyzoite growth, luciferase; test system = ME49-Fluc, type II; endpoint = EC50; value = 3.39 µM
Compound = COc1cc(-c2ccc(-c3ccc(C(=N)N)nc3)s2)cc(OC)c1OC; target or system = MDA-MB-231/ATCC; test = NCI five-dose screen; endpoint = GI50; value = 1.85 µM
Compound = Cc1ccc(C(=O)Nc2ccc(CN3CCN(C)CC3)c(C(F)(F)F)c2)cc1C#Cc1cnc2cccnn12; target or system = KCL-22 KCL22-T315I; setting = 48 h; endpoint = GI50; value = 0.0005 ± 0.0002 µM
Compound = [Cl-].[Cl-].[Os+2].c1cnc2c(c1)ccc1cccnc12.c1cnc2c(c1)ccc1cccnc12.c1cnc2c(c1)ccc1cccnc12; target or system = SK-MEL-28; test = cell growth, SRB; setting = cool white visible light, 1% O2 hypoxia; endpoint = GI50; value = 119 µM
Compound = COc1ccc(-c2ccc(-c3ccc(C(=N)N)nc3)s2)cc1; target or system = MDA-MB-231/ATCC; test = NCI five-dose screen; endpoint = GI50; value = 1.75 µM
Compound = Cc1cn(-c2cc(NC(=O)c3ccc(C)c(Nc4nccc(-c5cccnc5)n4)c3)cc(C(F)(F)F)c2)cn1; target or system = KCL-22 wild type; setting = 48 h; endpoint = GI50; value = 0.00077 ± 0.002 µM
Compound = Cn1cncc1C1=CN(c2ncnc3[nH]cnc23)CCS1; target or system = MDA-MB-231/ATCC; endpoint = GI50; value = 33.9 µM
